{"data": "Assay results gathered from unrelated publications", "note": "Every numbered part comes from another study and shows a few of its results, in no order. Positions count from the first letter of the parent shown."}
{"data": "Series 1", "target": "Sal-like protein 4, full length isoform B (SALL4, Homo sapiens, UniProt Q9UJQ4-2, residues 1-616)", "method": "universal PBM", "molecule type": "double-stranded DNA, one strand shown", "matrix": "in vitro", "tested at": "not given", "setting": "8-mer, flanks averaged, mean of replicates", "direction": "higher = stronger binding", "Construct (chain)": "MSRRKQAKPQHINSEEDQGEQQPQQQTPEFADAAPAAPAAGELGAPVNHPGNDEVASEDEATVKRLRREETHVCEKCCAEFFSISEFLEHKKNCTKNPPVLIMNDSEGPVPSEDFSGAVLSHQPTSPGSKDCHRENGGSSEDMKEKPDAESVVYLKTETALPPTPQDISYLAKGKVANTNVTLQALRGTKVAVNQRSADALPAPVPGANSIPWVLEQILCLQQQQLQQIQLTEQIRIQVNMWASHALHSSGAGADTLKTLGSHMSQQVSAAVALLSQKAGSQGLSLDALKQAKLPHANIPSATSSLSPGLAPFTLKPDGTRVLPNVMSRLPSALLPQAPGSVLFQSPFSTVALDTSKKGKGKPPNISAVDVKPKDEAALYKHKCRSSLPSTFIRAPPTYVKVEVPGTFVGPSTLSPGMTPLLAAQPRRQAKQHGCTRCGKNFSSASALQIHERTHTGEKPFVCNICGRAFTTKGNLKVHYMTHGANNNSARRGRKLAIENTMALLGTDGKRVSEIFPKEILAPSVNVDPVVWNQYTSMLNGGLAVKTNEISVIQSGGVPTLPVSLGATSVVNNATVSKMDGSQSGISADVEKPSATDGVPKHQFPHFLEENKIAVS"}
{"Sequence": "TAATTGCA", "E-score": 0.18}
{"Sequence": "GCCCCAGA", "E-score": -0.351}
{"Sequence": "GATCGTAA", "E-score": 0.125}
{"Sequence": "GCTATACC", "E-score": -0.112}
{"Sequence": "CGCATGCC", "E-score": -0.102}
{"Sequence": "ACTGAATG", "E-score": 0.101}
{"data": "Series 2", "target": "Histone acetyltransferase KAT6A, winged helix 2, GST fusion (KAT6A, Homo sapiens, UniProt Q92794, residues 85-181)", "method": "protein binding microarray", "molecule type": "double-stranded DNA, one strand shown", "matrix": "in vitro", "tested at": "not given", "setting": "8-mer, flanks averaged, mean of 2 arrays, mostly near background", "baseline": "not given", "direction": "higher = stronger binding", "Target sequence (chain)": "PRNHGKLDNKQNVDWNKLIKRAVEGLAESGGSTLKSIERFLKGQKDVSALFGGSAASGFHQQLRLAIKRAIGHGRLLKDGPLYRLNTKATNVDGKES"}
{"Sequence": "CGAACACA", "E-score": 0.141}
{"Sequence": "CCTGGGAC", "E-score": 0.0246}
{"Sequence": "ATCGGTCC", "E-score": 0.0643}
{"Sequence": "CGATGCTA", "E-score": -0.02}
{"data": "Series 3", "target": "CCNB3, cyclin fold, Cln2 fusion (human)", "method": "yeast growth competition, sequencing", "matrix": "yeast", "setting": "weak parent motif", "baseline": "not given", "direction": "higher = stronger binding", "parent": "WEE1 docking peptide (human); HKTFRKLRLFDTP; partner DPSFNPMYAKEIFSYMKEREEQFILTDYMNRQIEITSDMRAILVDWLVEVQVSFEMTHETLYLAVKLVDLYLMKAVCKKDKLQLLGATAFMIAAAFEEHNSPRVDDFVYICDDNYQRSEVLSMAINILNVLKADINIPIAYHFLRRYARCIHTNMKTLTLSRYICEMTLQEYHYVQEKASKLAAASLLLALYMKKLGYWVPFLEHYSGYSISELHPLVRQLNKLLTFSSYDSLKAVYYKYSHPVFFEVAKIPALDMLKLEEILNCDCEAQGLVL"}
{"Substitution": "K2F", "normalised enrichment score": -0.23}
{"Substitution": "L7W", "normalised enrichment score": 0.284}
{"Substitution": "K6E", "normalised enrichment score": 0.256}
{"Substitution": "F10D", "normalised enrichment score": -0.37}
{"data": "Other studies, line by line"}
{"Molecule": "PhoQ, residues 284 288 289 292 302 303 AQGLTV", "target": "PhoP, residues 12 14 15 18 19 LYHSL (Escherichia coli, UniProt P23836)", "assay": "Sort-seq, refers to: YFP reporter", "test system": "E. coli", "conditions": "PhoQ-PhoP variant library, together with: 10 µM Mg2+", "scale": "baseline: high Mg2+ state, higher = stronger signaling", "quantity": "fold induction", "result": 2.22}
{"note": "A few entries again (series 2):"}
{"Sequence": "CGATGCTA", "E-score": -0.02}
